Results pooled from the literature.
Compare with care: the assays were run in different laboratories. “And” joins repeats or separate records; there may be more than shown. ± marks the error that the study gave.
KDM1A: Lysine-specific histone demethylase 1A (KDM1A, Homo sapiens, UniProt O60341)
Uncharacterized protein: Uncharacterized protein (Trypanosoma cruzi, UniProt Q4DRC3)
cathepsin L: cathepsin L (Capra hircus, UniProt A0A452FFI6)
HTR6: 5-hydroxytryptamine receptor 6 (HTR6, Homo sapiens, UniProt P50406)
UniProt P50406, sequence (whole entry, looked up): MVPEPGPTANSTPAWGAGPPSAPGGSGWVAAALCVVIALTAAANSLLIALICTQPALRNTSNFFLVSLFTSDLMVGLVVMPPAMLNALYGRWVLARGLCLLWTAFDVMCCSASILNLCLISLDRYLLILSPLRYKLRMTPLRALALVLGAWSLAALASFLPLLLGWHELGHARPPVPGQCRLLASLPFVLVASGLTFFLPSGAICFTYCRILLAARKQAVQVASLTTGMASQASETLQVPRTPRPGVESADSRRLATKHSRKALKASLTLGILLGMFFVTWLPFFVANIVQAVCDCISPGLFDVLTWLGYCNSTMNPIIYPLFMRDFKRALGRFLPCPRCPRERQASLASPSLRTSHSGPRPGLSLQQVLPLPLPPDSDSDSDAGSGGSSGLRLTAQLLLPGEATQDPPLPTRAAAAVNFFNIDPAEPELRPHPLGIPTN
CHRM2: Muscarinic acetylcholine receptor M2 (CHRM2, Homo sapiens, UniProt P08172)
UniProt P08172, sequence (whole entry, looked up): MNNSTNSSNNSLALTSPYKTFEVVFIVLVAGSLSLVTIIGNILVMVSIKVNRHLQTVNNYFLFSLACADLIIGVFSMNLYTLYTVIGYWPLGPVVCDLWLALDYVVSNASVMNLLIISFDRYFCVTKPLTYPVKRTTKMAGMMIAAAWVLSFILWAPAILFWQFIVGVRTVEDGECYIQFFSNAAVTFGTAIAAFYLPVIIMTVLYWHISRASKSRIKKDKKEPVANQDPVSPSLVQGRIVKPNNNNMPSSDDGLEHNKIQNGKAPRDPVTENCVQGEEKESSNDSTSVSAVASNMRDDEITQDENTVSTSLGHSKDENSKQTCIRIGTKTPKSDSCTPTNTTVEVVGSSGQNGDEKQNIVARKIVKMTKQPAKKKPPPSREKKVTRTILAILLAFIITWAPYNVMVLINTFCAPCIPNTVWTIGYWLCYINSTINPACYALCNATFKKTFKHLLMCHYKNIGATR
DRD3: D(3) dopamine receptor (DRD3, Homo sapiens, UniProt P35462)
UniProt P35462, sequence (whole entry, looked up): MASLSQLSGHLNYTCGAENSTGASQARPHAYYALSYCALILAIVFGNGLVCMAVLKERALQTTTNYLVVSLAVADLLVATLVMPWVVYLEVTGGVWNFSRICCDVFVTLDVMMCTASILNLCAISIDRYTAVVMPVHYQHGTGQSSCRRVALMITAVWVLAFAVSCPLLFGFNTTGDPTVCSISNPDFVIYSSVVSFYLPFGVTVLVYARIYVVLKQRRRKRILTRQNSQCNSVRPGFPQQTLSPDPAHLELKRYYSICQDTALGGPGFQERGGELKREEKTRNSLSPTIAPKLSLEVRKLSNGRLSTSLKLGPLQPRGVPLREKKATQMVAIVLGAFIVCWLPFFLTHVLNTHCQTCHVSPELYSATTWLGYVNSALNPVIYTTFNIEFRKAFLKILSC
CASP9: Caspase-9 (CASP9, Homo sapiens, UniProt P55211)
UniProt P55211, sequence (whole entry, looked up): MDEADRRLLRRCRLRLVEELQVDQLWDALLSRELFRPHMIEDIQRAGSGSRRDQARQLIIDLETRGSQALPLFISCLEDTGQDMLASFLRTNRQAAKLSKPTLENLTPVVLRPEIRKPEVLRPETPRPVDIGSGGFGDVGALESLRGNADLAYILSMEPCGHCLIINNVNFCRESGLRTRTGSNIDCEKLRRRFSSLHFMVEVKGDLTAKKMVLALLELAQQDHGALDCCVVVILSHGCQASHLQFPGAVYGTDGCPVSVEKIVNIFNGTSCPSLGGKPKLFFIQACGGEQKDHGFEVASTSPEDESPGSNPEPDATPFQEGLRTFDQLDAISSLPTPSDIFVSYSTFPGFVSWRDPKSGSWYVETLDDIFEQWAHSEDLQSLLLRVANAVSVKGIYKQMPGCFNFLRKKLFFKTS
UniProt Q9Y345, sequence (whole entry, looked up): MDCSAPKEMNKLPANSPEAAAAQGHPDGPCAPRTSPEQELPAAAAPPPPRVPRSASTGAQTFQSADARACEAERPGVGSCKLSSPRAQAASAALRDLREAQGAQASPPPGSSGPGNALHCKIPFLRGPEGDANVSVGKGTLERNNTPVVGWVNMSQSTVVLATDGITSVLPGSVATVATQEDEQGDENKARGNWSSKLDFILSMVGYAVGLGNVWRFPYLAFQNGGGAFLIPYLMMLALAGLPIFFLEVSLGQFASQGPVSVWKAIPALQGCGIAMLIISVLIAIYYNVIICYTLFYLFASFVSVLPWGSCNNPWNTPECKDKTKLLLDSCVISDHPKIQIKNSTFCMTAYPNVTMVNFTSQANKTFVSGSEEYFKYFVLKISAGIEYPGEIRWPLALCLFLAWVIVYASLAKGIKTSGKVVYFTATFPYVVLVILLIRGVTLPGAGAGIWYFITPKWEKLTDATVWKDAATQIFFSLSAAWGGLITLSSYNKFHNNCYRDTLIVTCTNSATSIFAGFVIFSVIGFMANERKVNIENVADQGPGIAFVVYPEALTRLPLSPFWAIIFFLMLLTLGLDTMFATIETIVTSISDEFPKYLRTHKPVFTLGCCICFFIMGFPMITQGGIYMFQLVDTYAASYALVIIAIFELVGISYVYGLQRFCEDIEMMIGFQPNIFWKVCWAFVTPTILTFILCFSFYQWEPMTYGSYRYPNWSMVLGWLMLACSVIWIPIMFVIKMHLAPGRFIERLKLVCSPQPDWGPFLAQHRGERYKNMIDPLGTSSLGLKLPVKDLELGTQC
UniProt P00915, sequence (whole entry, looked up): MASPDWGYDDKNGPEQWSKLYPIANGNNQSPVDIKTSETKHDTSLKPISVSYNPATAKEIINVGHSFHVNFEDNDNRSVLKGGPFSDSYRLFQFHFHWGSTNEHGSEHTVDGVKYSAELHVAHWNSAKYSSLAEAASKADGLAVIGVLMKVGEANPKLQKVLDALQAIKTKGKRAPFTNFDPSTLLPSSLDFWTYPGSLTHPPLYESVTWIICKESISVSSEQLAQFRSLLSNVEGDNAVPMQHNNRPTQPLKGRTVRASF
UniProt Q16572, sequence (whole entry, looked up): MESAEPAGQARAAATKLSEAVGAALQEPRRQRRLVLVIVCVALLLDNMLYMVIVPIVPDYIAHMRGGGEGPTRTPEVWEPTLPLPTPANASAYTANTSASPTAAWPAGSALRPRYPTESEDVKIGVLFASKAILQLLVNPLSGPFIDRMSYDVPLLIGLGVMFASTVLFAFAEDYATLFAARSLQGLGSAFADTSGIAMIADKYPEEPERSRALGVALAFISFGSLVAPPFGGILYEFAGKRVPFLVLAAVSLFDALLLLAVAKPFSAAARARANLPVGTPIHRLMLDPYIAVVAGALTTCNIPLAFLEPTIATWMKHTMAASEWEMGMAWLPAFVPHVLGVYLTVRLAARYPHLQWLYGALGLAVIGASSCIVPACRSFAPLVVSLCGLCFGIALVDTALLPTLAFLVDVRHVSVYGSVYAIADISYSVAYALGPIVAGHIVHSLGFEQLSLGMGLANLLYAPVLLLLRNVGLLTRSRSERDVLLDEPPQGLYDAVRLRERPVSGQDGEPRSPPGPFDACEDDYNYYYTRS
UniProt P00761, sequence (whole entry, looked up): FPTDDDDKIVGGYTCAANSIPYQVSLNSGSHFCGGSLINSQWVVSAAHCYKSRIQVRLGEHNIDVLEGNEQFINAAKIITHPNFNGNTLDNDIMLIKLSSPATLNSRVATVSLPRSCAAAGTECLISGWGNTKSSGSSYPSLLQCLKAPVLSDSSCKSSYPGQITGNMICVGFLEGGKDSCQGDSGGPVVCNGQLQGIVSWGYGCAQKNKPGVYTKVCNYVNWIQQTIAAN
UniProt P51692, sequence (whole entry, looked up): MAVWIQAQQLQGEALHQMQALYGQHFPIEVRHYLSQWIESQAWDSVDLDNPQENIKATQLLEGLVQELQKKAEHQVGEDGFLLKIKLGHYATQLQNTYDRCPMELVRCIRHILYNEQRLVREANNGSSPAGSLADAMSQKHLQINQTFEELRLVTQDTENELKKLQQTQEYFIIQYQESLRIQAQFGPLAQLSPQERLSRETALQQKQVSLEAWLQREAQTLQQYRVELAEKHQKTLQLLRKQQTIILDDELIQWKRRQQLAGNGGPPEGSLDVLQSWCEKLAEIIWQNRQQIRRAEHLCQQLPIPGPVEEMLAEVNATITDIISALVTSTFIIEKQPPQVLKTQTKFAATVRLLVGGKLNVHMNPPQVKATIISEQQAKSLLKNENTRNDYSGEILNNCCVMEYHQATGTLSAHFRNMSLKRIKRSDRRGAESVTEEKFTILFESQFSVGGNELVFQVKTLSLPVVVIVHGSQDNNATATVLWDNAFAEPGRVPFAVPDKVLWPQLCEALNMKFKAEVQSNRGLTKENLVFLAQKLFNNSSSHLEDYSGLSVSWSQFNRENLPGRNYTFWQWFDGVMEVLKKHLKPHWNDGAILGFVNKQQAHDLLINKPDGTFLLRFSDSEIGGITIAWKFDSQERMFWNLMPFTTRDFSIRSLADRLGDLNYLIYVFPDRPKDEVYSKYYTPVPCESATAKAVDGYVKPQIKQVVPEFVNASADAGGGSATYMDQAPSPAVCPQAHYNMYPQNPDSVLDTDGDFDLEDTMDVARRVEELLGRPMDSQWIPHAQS
UniProt P08037, sequence (whole entry, looked up): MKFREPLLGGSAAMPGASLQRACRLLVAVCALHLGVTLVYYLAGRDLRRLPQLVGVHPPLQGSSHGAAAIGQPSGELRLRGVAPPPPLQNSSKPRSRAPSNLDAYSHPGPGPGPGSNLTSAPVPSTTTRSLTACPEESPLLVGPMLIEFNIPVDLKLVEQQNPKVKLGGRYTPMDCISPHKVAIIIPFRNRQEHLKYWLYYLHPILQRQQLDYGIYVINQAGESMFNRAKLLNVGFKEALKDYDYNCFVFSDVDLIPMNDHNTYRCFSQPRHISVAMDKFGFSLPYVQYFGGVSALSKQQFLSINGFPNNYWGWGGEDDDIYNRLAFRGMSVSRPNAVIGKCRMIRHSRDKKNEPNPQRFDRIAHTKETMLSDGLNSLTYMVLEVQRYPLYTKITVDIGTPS

CCCCCCCCNC(=S)N1[C@H](CCC)[C@H](O)[C@@H](O)[C@H](O)[C@H]1CO  Ki (beta-glucosidase (almond); competitive inhibitor; added: p-nitrophenyl glucopyranoside): > 2000 µM
O=Cc1ccc(-c2cn([C@@H]3O[C@H](COP(=O)(O)OP(=O)(O)O[C@H]4O[C@H](CO)[C@H](O)[C@H](O)[C@H]4O)[C@@H](O)[C@H]3O)c(=O)[nH]c2=O)s1  Ki (B4GALT1 (Bos taurus, UniProt P08037); enzyme activity, inhibitor): 38.8 µM
CCc1noc(-c2ccc(-n3cnc(C(=O)NCc4cccs4)c3)nc2)n1  Ki (Alpha-synuclein, fibril (SNCA, Homo sapiens, UniProt P37840); ligand displacement, radioligand): > 1 µM
CCC[C@@H]1[C@H](O)[C@@H](O)[C@H](O)[C@@H](CO)N1C(=S)NCCc1ccccc1  Ki (beta-glucosidase (almond); competitive inhibitor; added: p-nitrophenyl glucopyranoside): > 2000 µM
COc1ccc(CCCN[C@@H]2CCC[C@H]2CN[C@@H]2CCC[C@H]2CNCCCCN[C@@H]2CCC[C@H]2CN)cc1Br  Ki (KDM1A; enzyme activity, inhibitor): 3.9 µM
O=c1[nH]cnc2c(CNCCCP(=O)(O)O)c[nH]c12  Ki (Uncharacterized protein; IMP formation, uncompetitive inhibitor; pH 8.3, 37 °C, added: hypoxanthine 120 µM, PRPP 1 mM): 8.4 ± 0.3 µM
[64Cu+2].c1ccc(CNCc2ccc(CN3CCCN4CCNCCCN(CC4)CC3)cc2)nc1  tissue uptake (CXCR4; NOD/SCID mouse, U87 and U87-stb-CXCR4 xenografts, spleen; iv, 60 min, ex vivo): 18.6 ± 1.23 %ID/g
COc1cccc(/C=C/C(=O)c2ccccc2)c1  Ki (cathepsin L; enzyme activity, competitive inhibitor; goat liver enzyme; pH 6.0, added: Z-Phe-Arg-4-methoxy-β-naphthylamide): 0.0035 ± 8e-05 µM
CCN(CC)CCSC(=S)N1CCN(C(=O)/C=C/c2coc3cc(F)ccc3c2=O)CC1  curative effect (tomato spotted wilt virus; viral infection, half-leaf method; Nicotiana glutinosa; 500 µg/mL): 60.6 ± 2.6%
CC[C@H](C)[C@@H]1NC(=O)[C@@H]2CCCN2C(=O)[C@@H]2CCCN2C(=O)[C@H]([C@@H](C)CC)NC(=O)[C@H](CO)NC(=O)[C@H](CCCCN)NC(=O)[C@H]([C@@H](C)O)NC(=O)[C@@H]2CSSC[C@H](NC1=O)C(=O)N[C@@H](Cc1ccccc1)C(=O)N1CCC[C@H]1C(=O)N[C@@H](CC(=O)O)C(=O)NCC(=O)N[C@@H](CCCNC(=N)N)C(=O)N2  Ki (Trypsin (Sus scrofa, UniProt P00761)): 0.026 ± 0.002 µM
O=C1N(CN2CCN(c3ccccc3)CC2)c2ccccc2C12OCCCO2  Ki (HTR1A (Homo sapiens, UniProt P08908); ligand displacement, radioligand): 0.244 µM
Fc1cc(OCCCN2CCN(c3cccc4sccc34)CC2)ccc1CN1CCOCC1  Ki (HTR6; ligand displacement, radioligand): 0.322 µM
CN1C(=O)[C@@H](Cc2ccc(O)cc2)NC(=O)CNC(=O)[C@H](Cc2ccc3ccccc3c2)NC(=O)[C@H](CCCNC(=N)N)NC(=O)[C@H]1CCCNC(=O)c1ccc(CNC(=O)CN2CCN(CC(=O)O)CCN(CC(=O)O)CCN(CC(=O)O)CC2)cc1 [gallium-68 labelled]  absorbed dose coefficient (extrapolated to adult male; C57BL/6 mice, lungs): 0.00704 mGy/MBq
O=C(/C=C/c1ccc([N+](=O)[O-])cc1)c1ccccc1  Ki (cathepsin L; enzyme activity, competitive inhibitor; goat liver enzyme; pH 6.0, added: Z-Phe-Arg-4-methoxy-β-naphthylamide): 0.0277 ± 0.0003 µM
Cc1ccc2nc(-c3ccc4nc(-c5ccc(N(C)C(=O)c6ccc7ccccc7c6)cc5)sc4c3)sc2c1S(=O)(=O)O  DNA binding (SYBR Green I displacement; DNA substrate; 100 µM): 35 ± 23%
CCC(=O)NCc1cc(C(=O)NCCCC(=O)NCCCCCOc2nsnc2C2=CCCN(C)C2)cc(C(=O)NCCN2CCN(CCCCC3CCN(CC(=O)N4c5ccccc5NC(=O)c5ccccc54)CC3)CC2)c1  Ki (CHRM2; ligand displacement, radioligand): 0.000339 µM
CC[C@H](C)[C@H](NC(=O)[C@H](Cc1c[nH]cn1)NC(=O)[C@H](CCCNC(=N)N)NC(=O)[C@H](CCCNC(=N)N)NC(=O)[C@H](CCCNC(=N)N)NC(C)=O)C(=O)N[C@H](C(=O)N[C@@H](CCCNC(=N)N)C(=O)N[C@@H](CCCCN)C(=O)N[C@@H](CCCNC(=N)N)C(=O)N[C@H](C(=O)N[C@@H](CC(C)C)C(=O)N[C@@H](CCCNC(=N)N)C(=O)N[C@@H](CCCNC(=N)N)C(=O)N[C@@H](CC(C)C)C(=O)N[C@@H](CC(C)C)C(=O)N[C@@H](CCC(N)=O)C(N)=O)[C@@H](C)O)C(C)C  fold reduction of binding (PC/PS 2:1 vesicles; concentration not given, KCl 100 to 300 mM): ~500
O=C(COc1ccc2ccccc2c1)NCc1ccc(OP(=O)(O)O)cc1  Ki (Signal transducer and activator of transcription 5B, SH2 (STAT5B, Homo sapiens, UniProt P51692); ligand displacement, FP): 50 µM
NC1CN(CCCCC2CCN(CC(=O)N3c4ccccc4NC(=O)c4ccccc43)CC2)CCN(CC(=O)N2CCC(N3CCC(n4c(=O)[nH]c5ccccc54)CC3)CC2)C1 (centres unmarked)  Ki (CHRM2; ligand displacement, radioligand): 0.000692 µM
CC(C)C[C@@H]1NC(=O)[C@H](C)NC(=O)[C@H](CC2CCN(C(=N)N)CC2)NC(=O)[C@H](CO)NC(=O)[C@H](CCCNC(=N)N)NC(=O)[C@H](CCCCN)NC(=O)[C@@H]2CCCN2C(=O)[C@@H](N)CSSC[C@@H](C(=O)O)NC(=O)[C@H](Cc2ccccc2)NC1=O  Ki (F11 (Homo sapiens, UniProt P03951); enzyme activity, inhibitor, absorbance; pH 7.4): 12.1 µM
COc1ccc(/C=C/C(=O)c2ccccc2)cc1  Ki (cathepsin L; enzyme activity, competitive inhibitor; goat liver enzyme; pH 6.0, added: Z-Phe-Arg-4-methoxy-β-naphthylamide): 0.0263 ± 7e-05 µM
C[C@@H]1NC(=O)[C@H](C)NC(=O)[C@H](CCC(N)=O)NC(=O)C[C@@H](CCc2ccccc2)NC(=O)[C@@H]2CCCCN2C(=O)C(=O)C(C)(C)COC(=O)[C@@H](C)NC(=O)[C@H](CC(=O)O)NC1=O  Ki (FKBP1A (Homo sapiens, UniProt P62942); ligand displacement, FP): 0.22 µM
Clc1cc(CN2CCCC2)ccc1OCCCN1CCN(c2cccc3sccc23)CC1  Ki (HTR6; ligand displacement, radioligand): 0.418 µM
CCOC(=O)c1nn(-c2ccccc2)cc1CN(C)[C@@H]1CCSC1  Ki (DRD3; ligand displacement, radioligand; cell membranes): > 10 µM
O=C(c1ccc(=O)n(CCF)c1)C1CCN(C2Cc3ccccc3CC2O)CC1 (single isomer, unassigned; (+))  Ki (SLC18A3 (Homo sapiens, UniProt Q16572); ligand displacement, radioligand): 0.00435 µM
NCc1cc(C(=O)NCCN2CCN(CCCCC3CCN(CC(=O)N4c5ccccc5NC(=O)c5ccccc54)CC3)CC2)cc(C(=O)NCCN2CCN(CCCCC3CCN(CC(=O)N4c5ccccc5NC(=O)c5ccccc54)CC3)CC2)c1  Ki (CHRM2; ligand displacement, radioligand): 0.000148 µM
CC(=O)N[C@@H](CC(C)C)C(=O)N[C@@H](CC(=O)O)C(=O)N[C@H](C(=O)N1CCC[C@H]1C(=O)N[C@H](C=O)CC(=O)O)C(C)C  Ki (CASP9; enzyme activity, inhibitor, fluorescence; pH 7): 2.19 µM
CCN(CC)CCCSC(=S)N1CCN(C(=O)/C=C/c2coc3ccccc3c2=O)CC1  protective effect (tomato spotted wilt virus; viral infection, half-leaf method; Nicotiana glutinosa; 500 µg/mL): 58.7 ± 5.4%
Nc1ncnc2c(CN3C[C@H](CSc4cnccn4)[C@@H](O)C3)c[nH]c12  Ki (MTA/SAH nucleosidase (Campylobacter jejuni subsp. jejuni, UniProt Z9IB28FKP7); enzyme activity, inhibitor; slow-onset tight binding): 0.0014 µM
COc1ccc(CCCN[C@H]2CCC[C@@H]2CN[C@H]2CCC[C@@H]2CNCCCCN[C@H]2CCC[C@@H]2CN)cc1  Ki (KDM1A; enzyme activity, inhibitor): 2.4 µM
CC1=CC[C@@H]2[C@H](C1)C2(C)C  Ki (chemosensory protein 5 (Mythimna separata, UniProt A0A5H2NAD7); binding, 1-NPN displacement; pH 7.4): 26.8 µM
CC(C)N1C[C@H](C)[C@H](NC(=O)c2cc3ccc(Br)cc3[nH]2)C1  Ki (DRD3; ligand displacement, radioligand; cell membranes): > 10 µM
CCCCOc1ccc(C(=O)OCC[N+]2(C)CC=CCC2)cc1 (centres unmarked)  Ki (CHRM2; ligand displacement, radioligand; cell membranes): 1.95 µM
CC(=O)N[C@@H](Cc1c[nH]c2ccccc12)C(=O)N[C@@H](CC(=O)O)C(=O)N[C@@H](CCCNC(=N)N)C(=O)N[C@@H](C)C(=O)N[C@H](C=O)CC(=O)O  Ki (CASP9; enzyme activity, inhibitor, fluorescence; pH 7): 11 µM
CC1=CC(C)=[N+]2C1=C(CCCCCN1CCC(O)(c3ccc(Cl)cc3)CC1)c1c(C)cc(C)n1[B-]2(F)F  Ki (Sodium- and chloride-dependent glycine transporter 2 (Homo sapiens, UniProt Q9Y345); cell-free assay, mass spectrometry): 0.661 µM
CCC(=O)NC1CN(CCCCC2CCN(CC(=O)N3c4ccccc4NC(=O)c4ccccc43)CC2)CCN(CC(=O)N2CCC(N3CCC(n4c(=O)[nH]c5ccccc54)CC3)CC2)C1 (centres unmarked)  Ki (CHRM2; ligand displacement, radioligand): 0.000776 µM
Nc1nc(O)c2[nH]cc(CN[C@H](CO)CCP(=O)(O)O)c2n1  Ki (Uncharacterized protein; IMP formation, uncompetitive inhibitor; pH 8.3, 37 °C, added: hypoxanthine 120 µM, PRPP 1 mM): 0.6 to 1.6 µM and 0.6 µM
NS(=O)(=O)c1ccc(N/N=C2\C(=O)N(CC(=O)Nc3ccccc3Cl)c3ccccc32)cc1  Ki (CA1 (Homo sapiens, UniProt P00915)): 2.69 µM

Some of these lines once more:
CCOC(=O)c1nn(-c2ccccc2)cc1CN(C)[C@@H]1CCSC1  Ki (DRD3; ligand displacement, radioligand; cell membranes): > 10 µM
O=C(c1ccc(=O)n(CCF)c1)C1CCN(C2Cc3ccccc3CC2O)CC1 (single isomer, unassigned; (+))  Ki (SLC18A3 (Homo sapiens, UniProt Q16572); ligand displacement, radioligand): 0.00435 µM
NCc1cc(C(=O)NCCN2CCN(CCCCC3CCN(CC(=O)N4c5ccccc5NC(=O)c5ccccc54)CC3)CC2)cc(C(=O)NCCN2CCN(CCCCC3CCN(CC(=O)N4c5ccccc5NC(=O)c5ccccc54)CC3)CC2)c1  Ki (CHRM2; ligand displacement, radioligand): 0.000148 µM
